# Experimental data gathered from unrelated publications.
# Numbered parts are unrelated; each lists some results of a single study.
# Sequence of UniProt Q02779 (whole entry, looked up): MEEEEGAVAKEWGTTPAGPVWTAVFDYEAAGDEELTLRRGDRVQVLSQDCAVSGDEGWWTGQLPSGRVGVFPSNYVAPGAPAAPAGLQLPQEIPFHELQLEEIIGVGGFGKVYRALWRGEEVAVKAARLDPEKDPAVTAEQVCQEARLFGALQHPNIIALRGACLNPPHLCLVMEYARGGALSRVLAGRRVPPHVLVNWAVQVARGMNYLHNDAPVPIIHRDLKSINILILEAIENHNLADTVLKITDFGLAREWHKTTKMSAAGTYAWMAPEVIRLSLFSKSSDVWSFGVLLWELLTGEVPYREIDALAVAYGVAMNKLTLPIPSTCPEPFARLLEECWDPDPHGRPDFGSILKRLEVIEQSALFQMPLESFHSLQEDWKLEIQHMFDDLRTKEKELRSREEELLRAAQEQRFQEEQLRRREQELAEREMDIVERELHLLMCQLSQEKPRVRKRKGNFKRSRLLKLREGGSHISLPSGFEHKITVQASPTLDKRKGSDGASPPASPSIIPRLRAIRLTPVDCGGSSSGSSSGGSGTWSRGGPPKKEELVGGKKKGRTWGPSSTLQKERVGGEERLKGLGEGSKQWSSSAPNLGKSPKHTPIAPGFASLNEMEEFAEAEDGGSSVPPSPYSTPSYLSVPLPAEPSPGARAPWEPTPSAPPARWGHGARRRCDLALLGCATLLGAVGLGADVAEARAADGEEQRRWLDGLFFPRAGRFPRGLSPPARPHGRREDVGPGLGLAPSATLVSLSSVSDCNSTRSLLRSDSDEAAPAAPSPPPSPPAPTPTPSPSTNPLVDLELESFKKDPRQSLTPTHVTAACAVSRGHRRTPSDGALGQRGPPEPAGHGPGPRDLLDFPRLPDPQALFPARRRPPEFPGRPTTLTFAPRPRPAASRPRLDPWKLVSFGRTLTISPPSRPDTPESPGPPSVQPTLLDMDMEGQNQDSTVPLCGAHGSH
# Sequence of UniProt Q9UKI8 (whole entry, looked up): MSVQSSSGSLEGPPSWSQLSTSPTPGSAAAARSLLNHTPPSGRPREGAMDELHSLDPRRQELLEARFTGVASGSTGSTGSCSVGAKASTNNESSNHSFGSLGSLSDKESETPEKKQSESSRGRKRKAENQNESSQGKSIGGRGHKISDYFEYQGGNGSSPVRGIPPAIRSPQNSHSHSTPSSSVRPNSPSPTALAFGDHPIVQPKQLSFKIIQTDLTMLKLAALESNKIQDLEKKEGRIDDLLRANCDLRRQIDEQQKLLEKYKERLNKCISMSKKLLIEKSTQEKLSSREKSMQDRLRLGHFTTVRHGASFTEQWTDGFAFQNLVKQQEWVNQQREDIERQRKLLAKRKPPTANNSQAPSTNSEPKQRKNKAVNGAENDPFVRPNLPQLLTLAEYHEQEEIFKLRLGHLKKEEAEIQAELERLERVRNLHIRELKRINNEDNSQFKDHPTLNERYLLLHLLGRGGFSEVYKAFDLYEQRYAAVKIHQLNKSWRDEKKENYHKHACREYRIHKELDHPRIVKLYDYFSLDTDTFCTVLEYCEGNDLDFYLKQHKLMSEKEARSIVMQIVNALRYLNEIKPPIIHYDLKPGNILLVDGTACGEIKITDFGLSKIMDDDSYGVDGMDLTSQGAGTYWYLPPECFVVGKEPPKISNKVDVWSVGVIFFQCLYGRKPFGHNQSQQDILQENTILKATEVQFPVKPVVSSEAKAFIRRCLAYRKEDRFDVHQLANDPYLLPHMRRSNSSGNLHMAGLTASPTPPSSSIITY

# Set 1
# Compound: N#CC1(c2ccccn2)CCN(Cc2cc(C(=O)N3CCCC3)c(=O)n3ccccc23)CC1
# Effect on: cell-free assay
# Technique: competition with immobilised ligand
# Concentration: 1 µM
target,remaining binding
"NEK1 (Homo sapiens, UniProt Q96PY6)",91%
"PRKD1 (Homo sapiens, UniProt Q15139)",95%
"PDPK1 (Homo sapiens, UniProt O15530)",81%
"ACVR1 (Homo sapiens, UniProt Q04771)",83%
"MAP3K10 (Homo sapiens, UniProt Q02779)",100%
"Tyrosine-protein kinase ABL1, non-phosphorylated (ABL1, Homo sapiens, UniProt P00519, Q252H)",97%
"Non-receptor tyrosine-protein kinase TYK2, JH2 (TYK2, Homo sapiens, UniProt P29597)",100%
"EPHB4 (Homo sapiens, UniProt P54760)",100%
"MAP3K13 (Homo sapiens, UniProt O43283)",100%
"SIK3 (Homo sapiens, UniProt Q9Y2K2)",100%
"PIK3CA (Homo sapiens, UniProt P42336, C420R)",87%
"PIK3CG (Homo sapiens, UniProt P48736)",75%
"MAPK10 (Homo sapiens, UniProt P53779)",96%
"NEK9 (Homo sapiens, UniProt Q8TD19)",99%
"TLK1 (Homo sapiens, UniProt Q9UKI8)",85%
"GRK7 (Homo sapiens, UniProt Q8WTQ7)",87%
"Tyrosine-protein kinase ABL1, phosphorylated (ABL1, Homo sapiens, UniProt P00519, T315I)",100%
"RIOK2 (Homo sapiens, UniProt Q9BVS4)",95%
"TIE1 (Homo sapiens, UniProt P35590)",98%
"AXL (Homo sapiens, UniProt P30530)",78%

# Set 2
# Host: human
# Sample: microsomes or S9
# Concentration: 2 µM
# Time: 0.5 h
SMILES,remaining compound
CCN(CCCNC(=O)Nc1cc(Br)cn(C)c1=O)S(C)(=O)=O,76%
O=C(Cc1cccs1)NC1(C(=O)NC2CCCCC2)CCCCC1,2.55%
CCOc1ccccc1NC(=O)c1cc2cc(C)ccc2[nH]1,44.7%
CC(C)(C)c1ccccc1NC(=O)c1ccc(NC(=O)Nc2ccccc2)s1,66.5%

# Set 3
# Organism: Plasmodium berghei
# Action: inhibitor
# Cell line: Huh-7
# Strain: liver stage
# Concentration: 10 µM
# Time: 24 h
# Reference: untreated control
Structure (SMILES),infection rate
C[C@]12CCC(=O)C=C1CC[C@@H]1[C@@H]2[C@@H](O)C[C@@]2(C)[C@H]1CC[C@]2(O)C(=O)COC(=O)CCC(=O)O,90.7%
NC(=O)NO,116%
COc1c(N2CCNC(C)C2)c(F)cc2c(=O)c(C(=O)O)cn(C3CC3)c12 (centres unmarked),86%

# Set 4
# Cell line: mouse MPNST tumor cells
# Technique: high-content nuclear imaging
# Refers to: cell number
# Concentration: 10 µM
# Time: 12 h
# Notes: mean of 2 replicates
# Reference: plate mean
# Direction: higher = more cells
SMILES,nuclei count [z-score]
CN(C)C(=O)n1nnnc1Cc1ccc(-c2ccccc2)cc1,-1.19
CS(=O)(=O)NCC1CCC(Nc2nc3c(s2)CCSc2ccccc2-3)CC1 (centres unmarked),2.88
COCC(=O)NCCc1c(C)[nH]c2ccc(O)cc12,0.517

# Set 5
# Compound: CC(C)n1cnc(-c2ccc(F)cc2)c1-c1ncc(C(=O)Nc2ccc(N3CCN(C)CC3)cc2)[nH]1
# Technique: phase 2a trial
# Host: idiopathic pulmonary fibrosis patients
dose,notes,patients with increased interferon-gamma
30 mg once daily,grade 5,0%
60 mg once daily,grade 2,0%
30 mg once daily,grade 4,0%

# Set 6
# Target: Calcium/calmodulin-dependent protein kinase type II subunit alpha (CAMK2A, Homo sapiens, UniProt Q9UQM7)
# Sequence of UniProt Q9UQM7 (whole entry, looked up): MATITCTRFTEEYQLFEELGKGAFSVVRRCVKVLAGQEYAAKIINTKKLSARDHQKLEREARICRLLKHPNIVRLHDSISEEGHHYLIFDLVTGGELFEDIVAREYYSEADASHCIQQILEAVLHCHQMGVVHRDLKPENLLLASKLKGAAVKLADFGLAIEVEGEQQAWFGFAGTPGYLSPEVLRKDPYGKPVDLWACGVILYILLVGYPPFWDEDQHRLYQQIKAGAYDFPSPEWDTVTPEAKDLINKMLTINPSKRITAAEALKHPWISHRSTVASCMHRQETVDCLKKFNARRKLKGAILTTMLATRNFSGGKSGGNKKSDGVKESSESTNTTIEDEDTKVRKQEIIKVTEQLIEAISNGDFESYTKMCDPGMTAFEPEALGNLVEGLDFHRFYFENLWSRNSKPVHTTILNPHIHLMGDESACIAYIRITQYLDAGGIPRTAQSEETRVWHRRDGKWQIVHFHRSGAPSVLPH
# Effect on: enzyme activity
# Action: inhibitor
# Concentration: 10 µM
Compound,inhibition [%]
COc1cc2c(c(OC)c1OC)-c1c3cc4c(c1OC[C@@H](C)[C@@](C)(O)C(=O)O[C@@H]2[C@@](C)(O)[C@@H](C)C3)OCO4,-3
OC(CCN1CCCC1)(c1ccccc1)C1CCCCC1 (centres unmarked),-6
O=C(O)C(O)c1ccc(O)c(O)c1 (centres unmarked),5
O=C(CCCCCCC(=O)Nc1ccccc1)NO,0

# Set 7
# Target: DNA polymerase theta, ATPase domain (POLQ, Homo sapiens, UniProt O75417)
# Sequence of UniProt O75417 (whole entry, unmodified, looked up): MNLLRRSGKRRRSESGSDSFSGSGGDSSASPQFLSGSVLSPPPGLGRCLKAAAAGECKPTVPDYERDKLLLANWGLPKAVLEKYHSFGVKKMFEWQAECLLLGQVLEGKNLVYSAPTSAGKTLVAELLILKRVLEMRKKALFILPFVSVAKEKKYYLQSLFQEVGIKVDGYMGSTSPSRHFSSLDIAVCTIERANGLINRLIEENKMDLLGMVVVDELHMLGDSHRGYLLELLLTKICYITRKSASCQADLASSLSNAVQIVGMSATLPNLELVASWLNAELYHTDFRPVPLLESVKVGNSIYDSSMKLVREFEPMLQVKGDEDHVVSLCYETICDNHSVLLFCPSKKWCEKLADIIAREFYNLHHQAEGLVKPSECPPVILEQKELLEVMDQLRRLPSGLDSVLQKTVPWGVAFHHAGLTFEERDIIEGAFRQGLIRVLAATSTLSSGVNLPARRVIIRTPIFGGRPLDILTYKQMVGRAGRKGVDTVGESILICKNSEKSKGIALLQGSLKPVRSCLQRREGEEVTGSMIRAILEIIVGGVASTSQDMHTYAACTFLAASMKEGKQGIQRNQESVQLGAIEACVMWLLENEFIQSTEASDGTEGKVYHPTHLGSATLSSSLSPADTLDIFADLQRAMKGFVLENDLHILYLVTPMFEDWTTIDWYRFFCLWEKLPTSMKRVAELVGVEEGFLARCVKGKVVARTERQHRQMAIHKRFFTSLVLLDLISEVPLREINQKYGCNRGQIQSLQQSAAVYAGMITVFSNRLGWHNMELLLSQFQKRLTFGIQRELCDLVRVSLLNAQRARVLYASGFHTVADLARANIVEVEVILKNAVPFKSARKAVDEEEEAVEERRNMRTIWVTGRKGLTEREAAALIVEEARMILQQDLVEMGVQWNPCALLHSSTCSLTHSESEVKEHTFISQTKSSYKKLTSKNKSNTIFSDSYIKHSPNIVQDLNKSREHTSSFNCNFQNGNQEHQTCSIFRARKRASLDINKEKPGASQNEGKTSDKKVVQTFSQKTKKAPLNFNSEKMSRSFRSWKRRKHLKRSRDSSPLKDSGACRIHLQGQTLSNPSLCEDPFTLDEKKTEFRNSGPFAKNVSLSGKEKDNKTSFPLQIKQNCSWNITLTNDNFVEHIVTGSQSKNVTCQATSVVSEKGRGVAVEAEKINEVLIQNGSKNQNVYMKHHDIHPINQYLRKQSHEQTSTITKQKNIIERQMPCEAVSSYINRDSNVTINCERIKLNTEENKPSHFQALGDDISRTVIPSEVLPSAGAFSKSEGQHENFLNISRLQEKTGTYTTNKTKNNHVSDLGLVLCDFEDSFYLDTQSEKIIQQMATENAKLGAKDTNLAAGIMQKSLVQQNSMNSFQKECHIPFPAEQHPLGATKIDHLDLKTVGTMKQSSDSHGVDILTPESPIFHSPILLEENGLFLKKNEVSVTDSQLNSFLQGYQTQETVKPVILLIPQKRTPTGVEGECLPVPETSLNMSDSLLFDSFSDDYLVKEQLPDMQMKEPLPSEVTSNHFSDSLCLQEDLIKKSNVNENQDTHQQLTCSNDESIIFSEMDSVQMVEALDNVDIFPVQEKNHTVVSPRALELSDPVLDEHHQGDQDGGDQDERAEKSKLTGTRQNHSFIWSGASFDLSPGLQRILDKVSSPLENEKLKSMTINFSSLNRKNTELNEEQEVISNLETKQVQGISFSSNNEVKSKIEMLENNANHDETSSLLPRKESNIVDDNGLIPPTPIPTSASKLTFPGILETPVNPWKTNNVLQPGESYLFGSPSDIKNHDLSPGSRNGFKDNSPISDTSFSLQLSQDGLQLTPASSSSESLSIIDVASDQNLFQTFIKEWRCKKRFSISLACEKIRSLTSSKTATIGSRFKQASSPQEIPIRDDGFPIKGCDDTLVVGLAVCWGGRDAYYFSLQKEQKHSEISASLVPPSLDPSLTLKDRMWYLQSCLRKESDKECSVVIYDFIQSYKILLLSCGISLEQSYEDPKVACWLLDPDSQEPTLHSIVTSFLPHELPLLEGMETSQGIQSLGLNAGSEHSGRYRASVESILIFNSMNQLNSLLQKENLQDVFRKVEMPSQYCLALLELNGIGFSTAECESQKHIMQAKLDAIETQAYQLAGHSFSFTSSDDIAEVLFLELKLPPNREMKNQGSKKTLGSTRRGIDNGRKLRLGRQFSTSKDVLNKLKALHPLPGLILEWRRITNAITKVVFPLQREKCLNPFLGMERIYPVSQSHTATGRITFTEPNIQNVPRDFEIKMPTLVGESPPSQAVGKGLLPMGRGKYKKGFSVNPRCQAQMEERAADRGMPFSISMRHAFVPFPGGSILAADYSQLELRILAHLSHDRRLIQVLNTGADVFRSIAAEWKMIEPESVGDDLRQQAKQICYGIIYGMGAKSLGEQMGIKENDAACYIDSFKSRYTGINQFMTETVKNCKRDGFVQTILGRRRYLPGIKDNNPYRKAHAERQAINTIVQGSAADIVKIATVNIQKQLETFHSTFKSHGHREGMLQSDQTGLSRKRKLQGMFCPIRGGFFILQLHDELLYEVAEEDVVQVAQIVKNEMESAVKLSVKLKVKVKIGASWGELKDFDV
# Effect on: enzyme activity
# Action: inhibitor
# Concentration: 77 µM
# Reference: untreated
SMILES,remaining activity [%]
NC(=O)OCC(COC(N)=O)c1ccccc1,103
NC(=O)OCC(O)COc1ccc(Cl)cc1 (centres unmarked),92.6
CNC(=O)c1cc(Oc2ccc(NC(=O)Nc3ccc(Cl)c(C(F)(F)F)c3)c(F)c2)ccn1,101

# Further values, each from its own experiment
Compound,target,technique,refers to,concentration,reference,endpoint,value
Cc1ccc(NC(=O)c2ccnc(C(F)(F)F)c2)cc1-c1cc(OCCO)nc(N2CCOCC2)c1,"Atypical kinase COQ8B, mitochondrial (COQ8B, Homo sapiens, UniProt Q96D53)",competitive binding panel,ADCK4,1 µM,vehicle,remaining binding,100%

# Some of these lines once more (set 2):
SMILES,remaining compound
CCOc1ccccc1NC(=O)c1cc2cc(C)ccc2[nH]1,44.7%
O=C(Cc1cccs1)NC1(C(=O)NC2CCCCC2)CCCCC1,2.55%
